Measurements from different studies.
Values joined by “and” are separate records of one study, mostly repeats; a detail may differ. Numbers after ± are the reported error.
rep main protease: Replicase polyprotein 1ab, main protease (rep, Severe acute respiratory syndrome coronavirus 2, UniProt P0DTD1)

The EC50 of `NC(=O)c1nc(F)c[nH]c1=O` is reported as 8100 nM (Chikungunya virus; viral replication; BHK-21, CHIKV).
With `O=C1OC(CN2CCOCC2)CN1/N=C/c1ccc([N+](=O)[O-])o1` (stereo not shown) the inhibition was at least 80% (Chikungunya virus; replicon luciferase activity; BHK-21 CHIKV replicon cells; 20 µM, 48 h).
With `Cn1c(=O)c(C(=O)CCN2CCOCC2)c(O)c2ccccc21` the inhibition was 99% (Chikungunya virus; viral replication; 20 µM, added at 0 h post-infection).
`O=C(Nc1ncc([N+](=O)[O-])s1)c1ccccc1O`: “lowest effective concentration” 20 µM (Chikungunya virus; viral protein synthesis, western blot; BHK-21; 6 h).
The EC90 of `COc1cc2c(cc1NC(=O)c1ccc(C(C)(C)C)cc1)CCC2` is reported as over 6000 nM (Chikungunya virus; viral replication; NHDF).
`C=C(C)C(Cc1c(OC)ccc(C(=O)/C=C/c2ccc(O)cc2)c1O)OO` (stereo not shown) has an inhibition of at least 80% (Chikungunya virus; replicon luciferase activity; BHK-21 CHIKV replicon cells; 20 µM, 48 h).
`CC[C@H](C)[C@H](NC(=O)[C@H](CC(C)C)NC(=O)[C@H](Cc1c[nH]c2ccccc12)NC(=O)[C@H](CCC(N)=O)NC(=O)[C@@H](NC(=O)[C@H](Cc1ccccc1)NC(=O)[C@H](C)NC(=O)[C@H](CCCCNC(=O)COCCOCCNC(=O)COCCOCCNC(=O)CC[C@H](NC(=O)CCCCCCCCCCCCCCCCCCC(=O)O)C(=O)O)NC(=O)[C@H](CCC(N)=O)NC(=O)[C@H](C)NC(=O)[C@@H](NC(=O)[C@H](CCCCN)NC(=O)[C@H](CC(=O)O)NC(=O)[C@H](CC(C)C)NC(=O)C(C)(C)NC(=O)[C@@H](NC(=O)[C@H](CO)NC(=O)[C@H](Cc1ccc(O)cc1)NC(=O)[C@H](CC(=O)O)NC(=O)[C@H](CO)NC(=O)[C@@H](NC(=O)[C@H](Cc1ccccc1)NC(=O)[C@@H](NC(=O)CNC(=O)[C@H](CCC(=O)O)NC(=O)C(C)(C)NC(=O)[C@@H](N)Cc1ccc(O)cc1)[C@@H](C)O)[C@@H](C)O)[C@@H](C)CC)[C@@H](C)CC)C(C)C)C(=O)N[C@@H](C)C(=O)NCC(=O)NCC(=O)N1CCC[C@H]1C(=O)N[C@@H](CO)C(=O)N[C@@H](CO)C(=O)NCC(=O)N[C@@H](C)C(=O)N1CCC[C@H]1C(=O)N1CCC[C@H]1C(=O)N1CCC[C@H]1C(=O)N[C@@H](CO)C(N)=O` has a serum ALT of 28.7 ± 14.1 U/L (patients with type 2 diabetes, serum; 0.5 mg, day 29, proof of concept).
With `O=C(N1CCC2(CC1)C[C@H](CN1CCCCS1(=O)=O)CCO2)C1(c2cc(F)cc(F)c2)CCCC1` the EC50 was 360 nM (Chikungunya virus; viral replication).
`COc1nc2c(cc1NC(=O)c1ccc(C(C)(C)C)cc1)CCCC2` gave an EC90 of 2300 nM (Chikungunya virus; viral replication; NHDF).
`Nc1nc2c(ncn2[C@@H]2O[C@@H]3COP(=O)(O)O[C@H]4[C@@H](O)[C@H](n5cnc6c(=O)[nH]c(N)nc65)O[C@@H]4COP(=O)(O)O[C@H]3[C@H]2O)c(=O)[nH]1` gave an infectivity of 102% and 158% and 167% and 172% (Chikungunya virus; viral infection; concentration not given).
`Cc1[nH]c(/C=C2\C(=O)Nc3ccc(F)cc32)c(C)c1C(=O)NCCN1CCCC1.O=P(O)(O)O` has an inhibition of 1.48% (rep main protease; reporter gene (Gaussia luciferase), inhibitor; 20 µM).
`CC(=O)Oc1cc2c(cc1NC(=O)c1ccc(C(C)(C)C)cc1)CCCCC2` has an EC90 of 2800 nM (Chikungunya virus; viral replication; NHDF).
For `CNc1nc(N)ncc1-c1cn([C@@H]2O[C@H](CO)[C@@H](O)[C@@]2(C)F)cn1`, antiviral activity read “inactive” (Chikungunya virus; concentration not given).
For `Nc1ncnc2c([C@@H]3N[C@H](CO)[C@@H](O)[C@H]3O)c[nH]c12`, the inhibition was 12.3% (Chikungunya virus; viral replication; HeLa, AF 15561; 1.6 µM).
With `Nc1ncnc2c1ncn2[C@@H]1O[C@@H]2COP(=O)(O)O[C@H]3[C@@H](O)[C@H](n4cnc5c(=O)[nH]cnc54)O[C@@H]3COP(=O)(O)O[C@H]2[C@H]1O` the fold enrichment was 2.43 (Chikungunya virus; upregulated Reactome pathway, RNA sequencing, refers to: tRNA processing (R-HSA-72306); HFF-1; baseline: CHIKV-infected untreated).
For `Cn1cnc(Cn2c(=O)[nH]/c(=N\c3cc4cn(C)nc4cc3Cl)n(Cc3cc(F)c(F)cc3F)c2=O)n1`, the Tmax was 2.25 h (human, mild renal impairment, plasma; oral, 375 mg single dose).
`CC1CNc2c(cccc2S(=O)(=O)N[C@@H](CCCNC(=N)N)C(=O)N2CC[C@@H](C)C[C@@H]2C(=O)O)C1` (stereo partly shown) has an inhibition of 1.48% (rep main protease; reporter gene (Gaussia luciferase), inhibitor; 20 µM).
With `CCN(CC)CCCC(C)Nc1c2ccc(Cl)cc2nc2ccc(OC)cc12` (stereo not shown) the inhibition was at least 80% (Chikungunya virus; replicon luciferase activity; BHK-21 CHIKV replicon cells; 20 µM, 48 h).
For `NC(=O)c1ncc[nH]c1=O`, the IC50 was 34200 nM (Chikungunya virus; virus-induced cell death, MTS; U138, Brazil wild type; 4 d).
With `CC(C)(C)c1ccc(C(=O)Nc2ccc3c(c2)CCCCC3)cc1` the EC90 was 700 nM (Chikungunya virus; viral replication; NHDF).
`Cc1cc(C)cc([C@@H]2C[C@H]2C(=O)NC(C(=O)NC(C)(C)C)c2ccc(C)c(C)c2)c1` (stereo partly shown) gave an effective concentration of over 50 µM (Chikungunya virus; viral protein expression, Western blot, refers to: nsP1, nsP2, capsid; BHK-21; 6 h).
`Cc1cc2c(cc1NC(=O)c1ccc(C(C)(C)C)cc1)CCCCC2` gave an EC90 of 2410 nM (Chikungunya virus; viral replication; NHDF).
`O=C(N1CCC2(CC1)C[C@@H](CN1CCCCS1(=O)=O)CCO2)C1(c2ccccc2)CCCC1` gave an EC50 of 29000 nM (Chikungunya virus; viral replication).
`O=C(N1CCC2(CC1)CC(CN1CCCS1(=O)=O)CCO2)C1(c2ccccc2)CCCC1` (stereo not shown) gave an EC50 of 130 nM (Chikungunya virus; viral replication).
With `CC(=O)N[C@@H]1[C@@H](O[C@H](C)C(=O)N[C@@H](C)C(=O)N[C@H](CCC(=O)O)C(N)=O)[C@H](O)[C@@H](CO)O[C@H]1O` the infectivity was 150% and 156% and 102% and 169% (Chikungunya virus; viral infection; concentration not given).
`O=C(N1CCC2(CC1)CC(CNS(=O)(=O)CCCCl)CCO2)C1(c2ccccc2)CCCC1` (stereo not shown) has an EC50 of about 1000 nM (Chikungunya virus; viral replication).
`Cc1nc2c(=O)n(C)c(=O)nc-2n(C)n1` has an inhibition of at least 80% (Chikungunya virus; replicon luciferase activity; BHK-21 CHIKV replicon cells; 20 µM, 48 h).
`CC(C)(C)c1ccc(C(=O)Nc2cc3c(cc2F)CCCCC3)cc1` has an EC90 of 800 nM (Chikungunya virus; viral replication; NHDF).
For `CC(C)=CCC/C(C)=C/Cc1c(O)ccc(C(=O)/C=C/c2ccc(O)cc2)c1O`, the inhibition was at least 80% (Chikungunya virus; replicon luciferase activity; BHK-21 CHIKV replicon cells; 20 µM, 48 h).
With `CCOc1cc2c(cc1NC(=O)c1ccc(C(C)(C)C)cc1)CCC2` the EC90 was over 6000 nM (Chikungunya virus; viral replication; NHDF).
For `O=C(N1CCC2(CC1)OCC(CN1CCCCS1(=O)=O)O2)C1(c2ccccc2)CCCC1` (stereo not shown), the EC50 was 8000 nM (Chikungunya virus; viral replication).

Some of these lines once more:
With `CC(=O)N[C@@H]1[C@@H](O[C@H](C)C(=O)N[C@@H](C)C(=O)N[C@H](CCC(=O)O)C(N)=O)[C@H](O)[C@@H](CO)O[C@H]1O` the infectivity was 150% and 156% and 102% and 169% (Chikungunya virus; viral infection; concentration not given).
`O=C(N1CCC2(CC1)CC(CNS(=O)(=O)CCCCl)CCO2)C1(c2ccccc2)CCCC1` (stereo not shown) has an EC50 of about 1000 nM (Chikungunya virus; viral replication).
`Cc1nc2c(=O)n(C)c(=O)nc-2n(C)n1` has an inhibition of at least 80% (Chikungunya virus; replicon luciferase activity; BHK-21 CHIKV replicon cells; 20 µM, 48 h).
`CC(C)(C)c1ccc(C(=O)Nc2cc3c(cc2F)CCCCC3)cc1` has an EC90 of 800 nM (Chikungunya virus; viral replication; NHDF).
For `CC(C)=CCC/C(C)=C/Cc1c(O)ccc(C(=O)/C=C/c2ccc(O)cc2)c1O`, the inhibition was at least 80% (Chikungunya virus; replicon luciferase activity; BHK-21 CHIKV replicon cells; 20 µM, 48 h).
